Measured values gathered from unrelated publications.
Each line is one published result; not all experiments were run side by side. “And” joins repeats or separate records; there may be more than shown. ± gives the spread as reported.

| Structure (SMILES) | assay | test system | setting | how to read | endpoint | result |
| --- | --- | --- | --- | --- | --- | --- |
| N#Cc1ccc2c(c1)[C@H]1CCCN(C(=O)c3ccc4[nH]cnc4c3)[C@H]1C2 | – | human clinical trial | oral, 240 mg once daily, 28 d | – | HOMA-beta change | -1.4% |
| O=C1Nc2ccccc2C1=Cc1ccccn1 | ferric chloride carotid thrombosis | rat | oral, 5.6 mg/kg, 2 h before thrombosis | – | occlusion time prolongation | 57.9% |
| COc1cc(Nc2ncc3c(n2)-c2ccc(Cl)cc2C(c2c(F)cccc2OC)=NC3)ccc1C(=O)O | – | mouse, NB-1643 neuroblastoma xenograft | 20.8 mg/kg | direction not given | median response score | 10 |
| c1ccc(-c2n[nH]cc2-c2ccnc3ccccc23)nc1 | kinase binding, competitor, MIB/MS competition, item: KIN2 | Candida albicans cell lysate | 1 µM | reference: DMSO | log2 fold change | 0.887 |
| Cc1noc(C)c1-c1cc(C(O)(c2ccccn2)c2ccccn2)c2nc(C3CC3)[nH]c2c1 | item: CCR2 expression | human, peripheral blood | 6 mg, day 15, 1604 study, together with: enzalutamide | – | maximum inhibition | 42% |
| NC(=O)c1cnc2[nH]ccc2c1N[C@@H]1[C@@H]2CC3C[C@H]1C[C@@](O)(C3)C2 | CD8+ CD28+ naive T cells, flow cytometry | Japanese humans, peripheral blood | 60 mg single dose | reference: baseline | percent change | -1.87% |
| N#Cc1ccn2c(-c3ccncc3)c(-c3ccc(F)cc3)nc2c1 | kinase binding, competitor, MIB/MS competition, item: RIO2 | Candida albicans cell lysate | 1 µM | reference: DMSO | log2 fold change | -0.0797 |
| Cc1cnc(Nc2ccc(OCCN3CCCC3)cc2)nc1Nc1cccc(S(=O)(=O)NC(C)(C)C)c1 | – | BALB/c mice rhEPO-induced polycythemia | 120 mg/kg | – | spleen weight | 0.121 g and 0.092 g and 0.108 g and 0.134 g and 0.1 g and 0.117 g |
| O=C(O)CNS(=O)(=O)C(F)(F)C(F)(F)C(F)(F)C(F)(F)C(F)(F)C(F)(F)C(F)(F)C(F)(F)F | polarographic respiration | isolated rat liver mitochondria | above 20 µM | – | state 3 respiration | inhibited |
| C=CCn1c(=O)c2cnc(Nc3ccc(N4CCN(C)CC4)cc3)nc2n1-c1ccc2c(n1)[C@@](O)(CC)CC2 | – | OVCAR-3 xenograft, NOD/SCID mouse | 60 mg/kg once daily | – | tumour growth inhibition | 71.9% |
| C[C@H]1O[C@@H](O[C@H]2CC[C@@]3(C)[C@@H](CC[C@]4(C)[C@@H]3C=C[C@]35OC[C@@]6(CCC(C)(C)C[C@H]63)[C@@H](O)C[C@]54C)[C@]2(C)CO)[C@H](O)[C@@H](O[C@@H]2O[C@H](CO)[C@@H](O)[C@H](O)[C@H]2O)[C@H]1O | – | pair-fed control mice, plasma | dose not given, high dose | reference: AST over ALT | AST/ALT ratio | 1.57 and 1.56 and 2.19 and 1.8 |
| CSCCNc1nc(SCCC(F)(F)F)nc2c1ncn2[C@@H]1O[C@H](COP(=O)(O)OP(=O)(O)C(Cl)(Cl)P(=O)(O)O)[C@@H](O)[C@H]1O | ADP-induced platelet aggregation, LTA | human patients, platelet-rich plasma | dose not given, 4 to 6 h, together with: ADP 5 µM | – | inhibition | 28 ± 25.7% |
| Cn1cc(Nc2nc(N)nc(-c3cccc(-n4ccc5cc(C6CC6)cc(F)c5c4=O)c3CO)n2)cn1 | CD63 upregulation, anti-IgE-induced | human, multiple ascending dose, whole blood basophils ex vivo | 300 mg twice daily, day 14, 8 h | – | inhibition | 97.3% |
| COc1cc2nc(N3CCN(C(=O)C4CCCO4)CC3)nc(N)c2cc1OC (stereo not shown) | blood pressure | spontaneously hypertensive rat, male | oral, 3 mg/kg | – | time to maximum BP lowering | 15 min |
| N#CC[C@H](C1CCCC1)n1cc(-c2ncnc3[nH]ccc23)cn1 | – | Balb/c mice, oxazolone atopic dermatitis | day 8, unit not given | reference: vehicle | ear thickness difference | -0.154 |
| CO[C@H]1CC[C@H](N2C(=O)CNc3ncc(-c4ccc(C(C)(C)O)nc4)nc32)CC1 | flow cytometry | stimulated monocytes, human, blood | 45 mg single dose, 24 h, median | reference: baseline | pAKT change from baseline | -20.4% |
| CCCn1cc(C)c2c(=O)[nH]c(-c3cc(S(=O)(=O)N4CCN(CC)CC4)ccc3OCC)nc21 | – | supine | concentration not given, 0 to 4 h | reference: baseline | maximal mean DBP decrease | 7.67 mmHg |
| Cc1cnc(N2CC3(CCOCC3)C2)c(C(=O)Nc2ccc(C(=O)N3CCc4cc(C(=O)Nc5c(C)cccc5F)sc4-c4ccccc43)cc2)c1 | – | human, RSV infection, nasal wash | dose not given, ITT-IS population | reference: placebo | inhibition of MPO AUC | -20% |
| Cc1ccc([C@@H]2O[C@H](CO)[C@@H](O)[C@H](O)[C@H]2O)cc1Cc1ccc(-c2ccc(F)cc2)s1 | – | Japanese type 2 diabetes patients | 25 mg, day 2 | reference: day 1 | change in fasting serum insulin | 0.6 µU/mL |
| O=C(O)CNC(=O)Cc1ccccc1 | – | ventricular cardiomyocytes, C57BL/6 mouse | dose not given, 0.432 s | – | sarcomere length | 1.72 µm |
| CN1CC[C@@H](c2c(O)cc(O)c3c(=O)cc(-c4ccc(C(F)(F)F)cc4Cl)oc23)[C@@H]1CO | – | human | concentration not given, 110 days therapy | – | nadir SPD | 10.5 cm² |
| Cc1n[nH]c2ccc(-c3cc(OC[C@@H](N)Cc4ccccc4)cnc3-c3ccoc3)cc12 | kinase binding, competitor, MIB/MS competition, item: IRE1 | Candida albicans cell lysate | 1 µM | reference: DMSO | log2 fold change | 0.0485 |

| Structure (SMILES) | assay | test system | setting | how to read | endpoint | result |
| --- | --- | --- | --- | --- | --- | --- |
| CCN(Cc1nc2c(N)nc3cc(-c4cc[nH]n4)ccc3c2[nH]1)C(C)=O | – | human | 2000 µg | reference: baseline | decrease in skin lesions | ~57% |
| CC#Cc1cncc(-c2ccc3c(c2)[C@@]2(N=C(C)C(N)=N2)[C@]2(CC[C@H](OC)CC2)C3)c1 | item: Aβ42 | Dunkin-Hartley guinea pigs, plasma | oral, dose not given, down to LLOQ | – | reduction | > 90% |
| OC(CCN1CCCCC1)(c1ccccc1)C1CC2C=CC1C2 (stereo not shown) | resting-state EEG | healthy elderly humans | oral, 4 mg, eyes open, LS mean | – | EEG Beta3-power Pz-O1 | 1.9 µV² |
| COC(=O)[C@H](CC(C)C)NC(=O)[C@@H](O)[C@H](N)Cc1ccccc1 | protease activity | HEK-293T cell lysate | 10 µM, together with: XP-AMC 500 µM | – | cleavage inhibition | no inhibition |
| Cc1cc(C)c(CNC(=O)c2cc(Cl)c3c(c2C)O[C@@](C)([C@H]2CC[C@H](N(C)C)CC2)O3)c(=O)[nH]1 | IWG 2007 criteria | human, relapsed/refractory PTCL not otherwise specified | dose not given | – | best overall response PR | 23% |
| N=C(N)NCCC[C@H](NC(=O)[C@H](CCCNC(=N)N)NC(=O)[C@H](CCCCN)NC(=O)[C@H](CCC(N)=O)NC(=O)[C@H](CCCCN)NC(=O)[C@H](Cc1ccc(O)cc1)NC(=O)[C@@H](N)CCCCN)C(=O)N[C@@H](CO)C(=O)N[C@@H](Cc1ccc(O)cc1)C(=O)N[C@@H](CCCCN)C(=O)O | air evaporative stimulus | dentin hypersensitivity patients | 10 µg/tooth single, day 22, phase 1/2a | reference: baseline, direction not given | Schiff sensitivity score change | -1 ± 0.89 |
| O[C@H]1CCCN[C@@H]1CCCn1cnc2c(Cl)c(Cl)ccc21 | ELISA, item: Pro-C6 | healthy human volunteers, serum | intraduodenal, 50 mg twice daily, day 14, multiple ascending dose | – | maximum reduction | 10.1% |
| C=Cc1c(C)c2cc3nc(c(CC(=O)O)c4[nH]c(cc5nc(cc1[nH]2)C(C)=C5CC)c(C)c4C(=O)O)[C@@H](CCC(=O)O)[C@@H]3C | flow cytometry | mice, 4T1 tumour-bearing | dose not given, 1 h | – | PD-L1 positive cells | 1.92% |
| O=C([O-])CN1CCN(CC(=O)[O-])CCN(CC(=O)O)CCN(CC(=O)[O-])CC1.[Gd+3] | – | PBS | 0.3 mM, 25 °C, 7 T | – | T1 relaxation time | 543 ms |
| C[C@H]1C[C@H]2CSC(N)=N[C@@]2(c2nc(NC(=O)c3ccc(OC(F)F)cn3)cs2)CO1 | item: Aβ1-40 | healthy adults, plasma | 12 mg single dose, 48 h post-dose | reference: placebo | percent change from baseline | -53.3% |
| N#Cc1ccc2c(-c3ccncc3)c(-c3ccc(F)cc3)nn2c1 | kinase binding, competitor, MIB/MS competition, item: CKA2 | Candida albicans cell lysate | 1 µM | reference: DMSO | log2 fold change | 0.346 |
| C[C@@H](NC(=O)N1C(=O)[C@H](Cc2ccnc(N)c2)[C@H]1C(=O)O)C1CCCCC1 | – | human | iv infusion, 1.5 mg/kg/h, 24 h | – | PT AUEC | 1850 h·s |
| CCO[C@H]1CCN(Cc2c(OC)cc(C)c3[nH]ccc23)[C@H](c2ccc(C(=O)O)cc2)C1 | – | PNH patients, blood | oral, 50 mg then 200 mg, week 2, mean absolute change | reference: baseline | C3d-positive type III RBCs | -0.9% |
| Cn1cc(Nc2nccc(-c3ccc4c(c3)CN(C3COC3)CC[C@H]4NC(=O)c3cn(C(C)(C)C)nn3)n2)cn1 | item: Putrescine Degradation III | splenic B cells, mouse | in vivo, 30 mg/kg, IgD-activated B cells | reference: vehicle, positive = activation | pathway activation z-score | 1.34 |
| O=C(O)COCCN1CCN(C(c2ccccc2)c2ccc(Cl)cc2)CC1 (stereo not shown) | paw oedema | mouse | intraperitoneal, 10 mg/kg, 1 h, together with: histamine | – | inhibition | 71.6% |
| CC(C)NCC(O)c1ccc(O)c(O)c1 (stereo not shown) | – | ventricular cardiomyocytes, C57BL/6 mouse | dose not given, 0.632 s | – | sarcomere length | 1.72 µm |
| C[C@H](Oc1ccc(Br)cc1-c1ccon1)C(=O)O | last response peak | human, tibialis anterior muscle | 800 mg, 15 Hz, single ascending dose | – | difference from placebo | -22.9% |
| C[C@@H]1C[C@H]2[C@@H]3CCC4=CC(=O)C=C[C@]4(C)[C@@]3(F)[C@@H](O)C[C@]2(C)[C@@]1(O)C(=O)CO | – | BALB/c mice, oxazolone atopic dermatitis | topical, 20 mg/ear, 264 h, day 11, unit not given | reference: vehicle | ear thickness difference | -0.22 |
| COc1cc2cc(-c3ccc(CC(=O)Nc4cc(C(C)(C)C(F)(F)F)no4)cn3)cnc2cc1OC | RECIST v1.1 | human RET-altered solid tumours | 11 50 mg tablets, phase I | – | best overall response SD | 78% |
| Oc1ccc(Br)cc1C=NCCN1CCOCC1 | nitric oxide scavenging | – | 120 µM | – | inhibition | 18.6% |
| CN(C(=O)n1cnc(-c2ccc[n+]([O-])c2)c1)C1CCCCC1 | item: PEA | human, plasma | 2.5 mg single dose | – | AUC(0-t) | 315 ng·h/mL |
